Published values of several laboratories.
Protocols differ between the studies behind these lines. Values joined by “and” are separate records of one study, mostly repeats; a detail may differ. Numbers after ± are the reported error.

Structure (SMILES)	assay	system	conditions	how to read	measurement	result
CN(C(=O)n1cnc(-c2ccc[n+]([O-])c2)c1)C1CCCCC1		mice, formalin paw test	oral, 1 mg/kg, late phase	direction not given	licking time score	13.4
CC(C)NCC(O)c1ccc(O)c(O)c1 (stereo not drawn)		ventricular cardiomyocytes, C57BL/6 mouse	dose not given, 0.776 s		sarcomere length	1.72 µm
[Cl-].[Cl-].[Pt+2].[Ru+2].c1ccc(-c2nc3ccccc3nc2-c2ccccn2)nc1.c1cnc2c(c1)ccc1cccnc12.c1cnc2c(c1)ccc1cccnc12	chloride substitution, UV-vis kinetics	aqueous buffer	pH 7.2, 35 °C, second substitution step, added: guanosine 5'-monophosphate		activation free energy	20.6 ± 0.956 kcal/mol
CCS(=O)(=O)NC(=O)c1cc2ccccc2n1Cc1ccc(Br)c2ccccc12		mouse, acute hyperuricemia model	dose not given		serum uric acid	438 µM and 202 µM and 296 µM and 440 µM and 562 µM and 279 µM and 636 µM
CC1(C)CCC(c2ccc(Cl)cc2)=C(CN2CCN(c3ccc(C(=O)NS(=O)(=O)c4ccc(N[C@H](CCN5CCOCC5)CSc5ccccc5)c(S(=O)(=O)C(F)(F)F)c4)cc3)CC2)C1	cell killing	primary canine neoplastic B cells, dog 29	24 h		EC50	1400 nM
N=C(N)NCCC[C@H](NC(=O)[C@H](CCCNC(=N)N)NC(=O)[C@H](CCCCN)NC(=O)[C@H](CCC(N)=O)NC(=O)[C@H](CCCCN)NC(=O)[C@H](Cc1ccc(O)cc1)NC(=O)[C@@H](N)CCCCN)C(=O)N[C@@H](CO)C(=O)N[C@@H](Cc1ccc(O)cc1)C(=O)N[C@@H](CCCCN)C(=O)O		dentin hypersensitivity patients	10 µg/tooth, day 36 post-study visit, two teeth per subject	direction not given	VAS score	63.3 ± 17.2
N#Cc1ccn2c(-c3ccncc3)c(-c3ccc(F)cc3)nc2c1	kinase binding, competitor, MIB/MS competition, refers to: PKH2	Candida albicans cell lysate	100 nM	reference: DMSO	log2 fold change	-0.184
COc1ccc(-c2cncc(N[C@@H](C)c3cccc(NC(=O)c4cncc(C)c4)c3)n2)cc1OC	refers to: rno-miR-490-3p	rat SU5416/hypoxia model, lung	dose not given	reference: SU5416/hypoxia vehicle	fold change	2.43
CCN1CCN(Cc2ccc(Nc3ncc(F)c(-c4cc(F)c5nc6n(c5c4)[C@H](C)CCC6)n3)nc2)CC1	Phase Ia, RECIST v1.1	patients with advanced solid tumours	dose not given, monotherapy, investigator-assessed		disease control rate	70.8%
COc1c(Cl)cccc1Nc1c(-c2ccncc2OC[C@@H]2COCCO2)[nH]c2c1C(=O)NCC2		human	oral, 20 mg twice daily, 30 weeks		tumour shrinkage	53%
C[C@H]1C[C@H]2CSC(N)=N[C@@]2(c2nc(NC(=O)c3ccc(OC(F)F)cn3)cs2)CO1	refers to: Aβx-40	healthy adults, plasma	200 mg single dose, 8 h post-dose	reference: placebo	percent change from baseline	-66.9%
Cn1cc(Nc2nccc(-c3ccc4c(c3)CN(C3COC3)CC[C@H]4NC(=O)c3cn(C(C)(C)C)nn3)n2)cn1	refers to: Pancreatic Adenocarcinoma Signaling	splenic B cells, mouse	in vivo, 30 mg/kg, IgD-activated B cells	reference: vehicle, positive = activation	pathway activation z-score	1.39
CC(C)C[C@H](NC(=O)[C@@H](Cc1c[nH]c2ccccc12)NC(=O)[C@H](Cc1ccc(O)cc1)NC(=O)[C@H](CO)NC(=O)[C@H](Cc1c[nH]c2ccccc12)NC(=O)[C@H](Cc1c[nH]cn1)NC(=O)[C@@H]1CCC(=O)N1)C(=O)N[C@@H](CCCNC(=N)N)C(=O)N1CCC[C@H]1C(=O)NCC(N)=O		Chinese children, central precocious puberty, serum	intramuscular, 22.5 mg day 1, month 6, month 12		basal FSH level	1.76 IU/L
CN[C@@H](C)C(=O)N[C@H]1CN(S(=O)(=O)c2cccc(S(=O)(=O)N3CC[C@H]4CC[C@@H](C(=O)NC(c5ccccc5)c5ccccc5)N4C(=O)[C@@H](NC(=O)[C@H](C)NC)C3)c2)CC[C@H]2CC[C@@H](C(=O)NC(c3ccccc3)c3ccccc3)N2C1=O		advanced pancreatic cancer patients	dose not given, monotherapy after AG discontinuation		tumour control duration	1 years
C[C@@H]1CCC[C@H](n2cnc(-c3cc(Cl)ccc3-n3cc(Cl)nn3)cc2=O)c2cc(ccn2)-c2c(cnn2C(F)F)NC1=O		cynomolgus monkey plasma	IC2.5× aPTT, STA-PTT reagent		concentration for aPTT prolongation	1400 nM
CC(C)(O)c1coc(S(=O)(=O)NC(=O)c2cc3ccccc3n2Cc2ccc(Br)c3ccccc23)c1		male mouse, acute hyperuricaemia model, serum	oral, 2 mg/kg, 4 h		serum uric acid	318 ± 77.5 µM
COc1nnc2ccc(N3CCC(c4ccc(OCCN5CCN(C)C(=O)[C@H]5C)cc4)CC3)nn12		cancer patients, plasma	2 to 40 mg	reference: predose	plasma MMP-3 level	decreased
NC(=O)c1cnc2[nH]ccc2c1N[C@@H]1[C@@H]2CC3C[C@H]1C[C@@](O)(C3)C2	flow cytometry, refers to: CD8+ effector T cells	Japanese healthy subjects, peripheral blood	oral, 10 mg twice daily, day 4		change from baseline	0.03%
OC(CCN1CCCCC1)(c1ccccc1)C1CC2C=CC1C2 (stereo not drawn)	resting-state EEG	healthy elderly humans	oral, 4 mg, eyes open, LS mean		EEG theta power, O1 Pz	4.8 µV²
Cc1ccc([C@@H]2O[C@H](CO)[C@@H](O)[C@H](O)[C@H]2O)cc1Cc1ccc(-c2ccc(F)cc2)s1		Japanese type 2 diabetes patients	400 mg, day 17	reference: day 1	change in fasting plasma glucose	-60 mg/dL
CN[C@@H]1COc2c(S(=O)(=O)NC(=O)Nc3c4c(cc5c3CCC5)CCC4)cnn2C1	refers to: IL-18	human participants, whole blood ex vivo	300 mg twice daily, multiple doses, 24 h, IL-18, circulating, adjusted for, added: LPS/ATP	reference: baseline	inhibition	91.5%
C[C@H]1O[C@@H](O[C@H]2CC[C@@]3(C)[C@@H](CC[C@]4(C)[C@@H]3C=C[C@]35OC[C@@]6(CCC(C)(C)C[C@H]63)[C@@H](O)C[C@]54C)[C@]2(C)CO)[C@H](O)[C@@H](O[C@@H]2O[C@H](CO)[C@@H](O)[C@H](O)[C@H]2O)[C@H]1O		chronic-plus-binge ethanol mice, plasma	oral, 10 mg/kg/day for 7 d, 168 h		γ-GT activity	22.4 U/L and 27.7 U/L and 24.6 U/L and 19.7 U/L and 33.3 U/L and 23.5 U/L and 21.3 U/L and 36.7 U/L
CN1CCc2cc(Cl)c(O)cc2[C@@H](c2ccccc2)C1		mouse nucleus accumbens slices	10 µM, added: 20 Hz electrical stimulation		stimulus-evoked dopamine sensor fluorescence	inhibited
Cc1cc(C)c(CNC(=O)c2cc(Cl)c3c(c2C)O[C@@](C)([C@H]2CC[C@H](N(C)C)CC2)O3)c(=O)[nH]1		relapsed/refractory B-NHL patients	dose not given, IWG 2007 criteria		disease control rate (CR+PR+SD)	89%

Structure (SMILES)	assay	system	conditions	how to read	measurement	result
Cn1cc([C@H]2C[C@H]3CSC(N)=N[C@@]3(c3ccc(F)cc3F)CO2)cn1	refers to: Aβx-40	Mus musculus wild-type, cerebrospinal fluid	subcutaneous, 10 mg/kg, 13 h		Aβ40 level	1.56 ng/mL
O=C1Nc2ccccc2C1=Cc1ccccn1	antithrombotic activity	rat carotid FeCl3 thrombosis	oral		ED50	7.3 mg/kg
O=C(O)CNC(=O)Cc1ccccc1		ventricular cardiomyocytes, C57BL/6 mouse	dose not given, 0.448 s		sarcomere length	1.72 µm
COc1ccc2c(c1)CC[C@@H]1[C@@H]2CC[C@]2(C)[C@@H](NCCCCCCN3C(=O)C=CC3=O)CC[C@@H]12	astrogliosis, immunostaining	humanized UT mouse, subarachnoid haemorrhage model, meninges	dose not given, day 1	reference: total area	GFAP-positive area	0.49%
COc1cc2cc(-c3ccc(CC(=O)Nc4cc(C(C)(C)C(F)(F)F)no4)cn3)cnc2cc1OC	RECIST v1.1	RET-altered advanced solid tumour patients	oral, 40 mg once daily, phase I		disease control rate	67%
C=CC(=O)Nc1cc(Nc2ncc(C(=O)OC(C)C)c(-c3cn(C)c4ccccc34)n2)c(OC)cc1N(C)CCN(C)C	best overall response	patients with EGFR-mutant NSCLC	160 mg once daily, dose escalation and expansion		objective response rate	50%
C=CCn1c(=O)c2cnc(Nc3ccc(N4CCN(C)CC4)cc3)nc2n1-c1ccc2c(n1)[C@@](O)(CC)CC2		LS-411N xenograft, BALB/c nude mice	oral, 80 mg/kg once daily x 19, day 18		tumour volume difference	407 ± 22 mm3
O=C(O)Cc1ccccc1Nc1c(Cl)cccc1Cl	bioactivation, refers to: dansyl glutathione adduct M6	human	pathway 3		Vmax	52 pmol/min/mg protein
O=C(O)CCc1nccc2c3ccccc3n(Cc3ccc(Br)c4ccccc34)c12		mouse, acute hyperuricaemia model, serum	oral, 2 mg/kg	reference: vehicle model	serum uric acid decrease	72.9%
C[C@@H](NC(=O)N1C(=O)[C@H](Cc2ccnc(N)c2)[C@H]1C(=O)O)C1CCCCC1		human	iv infusion, 0.6 mg/kg/h, 24 h		ACT Emax	120 s
c1ccc(-c2n[nH]cc2-c2ccnc3ccccc23)nc1	kinase binding, competitor, MIB/MS competition, refers to: HSL1	Candida albicans cell lysate	10 µM	reference: DMSO	log2 fold change	1.56
N#CCNC(=O)c1ccc(-c2ccnc(Nc3ccc(N4CCOCC4)cc3)n2)cc1		patients with myelofibrosis	dose not given, 24 weeks, phase III trials		rate of spleen volume reduction ≥35%	25.8%
CS(=O)(=O)NC(=O)c1cc2ccccc2n1Cc1ccc(Br)c2ccccc12		mouse, acute hyperuricemia model	dose not given		serum uric acid	467 µM and 408 µM and 638 µM and 567 µM and 523 µM and 404 µM
COc1cc(F)c([C@@H]2CNC(=O)[C@H]2NC(=O)Nc2ccccc2)c(F)c1		rat, myocardial infarction	1 mg/kg, 1008 h, 6 weeks after occlusion		ejection fraction	44 ± 13%
O=C(NS(=O)(=O)c1ccccc1)c1cc2ccccc2n1Cc1ccc(C2CC2)c2ccccc12		mouse, acute hyperuricaemia model, serum	oral, 2 mg/kg	reference: vehicle model	serum uric acid decrease	95.9%
NCC(=O)Nc1cncc(-c2nn3c(=O)cc(N4CCNCC4)nc3s2)c1	ADP-induced platelet aggregation, light transmission aggregometry	human, stable CAD on aspirin, ex vivo platelets	subcutaneous, 0.04 mg/kg, 15 min post-dose, mean value, added: ADP 20 µM		inhibition	53.5%
N#Cc1ccc2c(c1)[C@H]1CCCN(C(=O)c3ccc4[nH]cnc4c3)[C@H]1C2		human, Phase II trial	oral, 80 mg once daily, day 28, adjusted mean, SE		HbA1c change from baseline	0.03%
N#Cc1ccc2c(c1)[C@H]1CCCN(C(=O)c3ccc4[nH]cnc4c3)[C@H]1C2		human, plasma	360 mg, day 15	reference: baseline, placebo-corrected	change in 1,5-anhydroglucitol	-17.7%
N#Cc1ccc2c(-c3ccncc3)c(-c3ccc(F)cc3)nn2c1	kinase binding, competitor, MIB/MS competition, refers to: KIN3	Candida albicans cell lysate	100 nM	reference: DMSO	log2 fold change	0.374
CSCCNc1nc(SCCC(F)(F)F)nc2c1ncn2[C@@H]1O[C@H](COP(=O)(O)OP(=O)(O)C(Cl)(Cl)P(=O)(O)O)[C@@H](O)[C@H]1O	ADP-induced platelet aggregation, light transmittance aggregometry	human patients, platelet-rich plasma	dose not given, 30 min, aggregation above 59%, added: ADP 20 µM	reference: patients	high residual platelet reactivity	55%
Cn1cc(Nc2nc(N)nc(-c3cccc(-n4ccc5cc(C6CC6)cc(F)c5c4=O)c3CO)n2)cn1	CD63 upregulation, refers to: CD63	basophils (CD123+ HLA-DR-), healthy humans, whole blood ex vivo	50 mg twice daily (multiple dose), 336 h, added: anti-IgE		inhibition	50.8%
[Cl-].[Cl-].[Pt+2].[Ru+2].c1ccc(-c2nccnc2-c2ccccn2)nc1.c1cnc2c(c1)ccc1cccnc12.c1cnc2c(c1)ccc1cccnc12	chloride substitution, UV-vis kinetics	aqueous buffer	pH 7.2, 35 °C, second substitution step, added: L-methionine		activation free energy	24.4 ± 1.67 kcal/mol
COc1ccc([C@@H](O)c2cc(-c3ncnc4cc(N5CCOCC5)ccc34)c(F)cc2Cl)nn1	RECIST version 1.1	patients, advanced solid tumours	300 mg twice daily, added: avelumab	reference: patients	objective response rate	0%
C[C@H](Oc1ccc(Br)cc1-c1ccon1)C(=O)O	muscle velocity recovery cycles	human, tibialis anterior muscle	400 mg twice daily	reference: placebo	MVRC latency difference	0.253 ms

Repeated from above:
Structure (SMILES)	assay	system	conditions	how to read	measurement	result
NC(=O)c1cnc2[nH]ccc2c1N[C@@H]1[C@@H]2CC3C[C@H]1C[C@@](O)(C3)C2	flow cytometry, refers to: CD8+ effector T cells	Japanese healthy subjects, peripheral blood	oral, 10 mg twice daily, day 4		change from baseline	0.03%
Cc1ccc([C@@H]2O[C@H](CO)[C@@H](O)[C@H](O)[C@H]2O)cc1Cc1ccc(-c2ccc(F)cc2)s1		Japanese type 2 diabetes patients	400 mg, day 17	reference: day 1	change in fasting plasma glucose	-60 mg/dL
CN(C(=O)n1cnc(-c2ccc[n+]([O-])c2)c1)C1CCCCC1		mice, formalin paw test	oral, 1 mg/kg, late phase	direction not given	licking time score	13.4
C[C@@H]1CCC[C@H](n2cnc(-c3cc(Cl)ccc3-n3cc(Cl)nn3)cc2=O)c2cc(ccn2)-c2c(cnn2C(F)F)NC1=O		cynomolgus monkey plasma	IC2.5× aPTT, STA-PTT reagent		concentration for aPTT prolongation	1400 nM
NCC(=O)Nc1cncc(-c2nn3c(=O)cc(N4CCNCC4)nc3s2)c1	ADP-induced platelet aggregation, light transmission aggregometry	human, stable CAD on aspirin, ex vivo platelets	subcutaneous, 0.04 mg/kg, 15 min post-dose, mean value, added: ADP 20 µM		inhibition	53.5%
c1ccc(-c2n[nH]cc2-c2ccnc3ccccc23)nc1	kinase binding, competitor, MIB/MS competition, refers to: HSL1	Candida albicans cell lysate	10 µM	reference: DMSO	log2 fold change	1.56
COc1cc(F)c([C@@H]2CNC(=O)[C@H]2NC(=O)Nc2ccccc2)c(F)c1		rat, myocardial infarction	1 mg/kg, 1008 h, 6 weeks after occlusion		ejection fraction	44 ± 13%
N#Cc1ccc2c(c1)[C@H]1CCCN(C(=O)c3ccc4[nH]cnc4c3)[C@H]1C2		human, Phase II trial	oral, 80 mg once daily, day 28, adjusted mean, SE		HbA1c change from baseline	0.03%
